Measurements collected from several papers.
“And” joins repeats or separate records; there may be more than shown. Numbers after ± are the reported error.

Under “time to MYCN down-regulation”, CC[C@H](CO)Nc1nc(NCc2ccc(-c3ccccn3)cc2)c2ncn(C(C)C)c2n1 is recorded as under 6 h (IMR-32; Western blot; 5 µM).
For Cc1ccc(NC2=CC(=O)c3sc(C)nc3C2=O)cc1, the inhibition was 77% (HeLa expressing Ub(G76V)-GFP; Ub(G76V)-GFP degradation, cycloheximide chase; 12 µM).
For Nc1ccccc1NC(=O)CCCCCCC(=O)Nc1ccccc1, the viability was 85.4% (HBL-1; 1 µM, 120 h).
With COc1cc2ncnc(Nc3ccc(Oc4ccccc4)cc3C)c2cc1OC.O=C(O)C(F)(F)F the fractional effect was 22% (NCI-H2087 (BRAF L597V); 3 µM, together with: trametinib 0 nM).
With CC(C)N(CCC(=O)c1ccc2ccccc2c1)Cc1ccccc1 the inhibition was 83% (HeLa expressing Ub(G76V)-GFP; Ub(G76V)-GFP degradation, inhibitor, cycloheximide chase; 12 µM).
Cn1cc(-c2ccc(-c3cncc(Cl)c3N3CCC4(CCNC4=O)CC3)cc2)cn1 — result for “log2 fold change”: -1.67 (COLO 205; gene expression, microarray, measured: PRKCDBP mRNA; concentration not given, 6 h; reference: untreated cells).
The IC50 of N#Cc1ccc(N2CCN(Cc3ccc(-c4ccc(-c5nc6cc(C(F)(F)F)ccc6[nH]5)cc4)cc3)CC2)nc1 is reported as over 20 µM (Plasmodium yoelii; 17XL; 384-well).
Clc1nc(NCc2ccco2)c2[nH]cnc2n1 gave a ΔPSI of -0.454 (iPSC-derived cardiomyocytes; RNA-seq, measured: ABCB4 chr7 exon ending 87412033; unit not given; reference: DMSO minus compound).
For NCCNc1ncc(C(N)=O)c(Nc2cccc(C(F)(F)F)c2)n1, the inhibition was 26% (HeLa expressing Ub(G76V)-GFP; Ub(G76V)-GFP degradation, cycloheximide chase; 12 µM).
With COc1ccc(-n2nc(C(C)=O)s/c2=N\N=C(/C)c2ccc(NC(=O)c3ccc(C)cc3)cc2)cc1 the toxicity was 95.2% (MCF7; 1.25 µM).
The inhibition of N#CSc1cc(SC#N)c(N)nc1N is reported as 94.2% (BT-12; cell viability, MTT; 10 µM, 72 h).
COc1ccc(NC(=S)N/N=C/c2cccc3cc4ccccc4nc23)cc1 — result for “G2/M phase cells”: 13.5 ± 3.1% (HeLa; PI flow cytometry; IC12.5, 48 h, together with: N-acetylcysteine).
Ic1cccc(CSc2nnc(-c3ccncc3)o2)c1 gave an inhibition of 19% (HeLa expressing Ub(G76V)-GFP; Ub(G76V)-GFP degradation, cycloheximide chase; 12 µM).
COc1ccc(NC(=O)Nc2cccc(-c3cn(Cc4ccccc4C)nn3)c2)cc1: apoptotic cells “no effect” (Huh-7; annexin V/PI flow cytometry; 5 µM, 72 h).
CC1(C)CN(CCCCC(=O)N[C@@H](CCCCNC(=O)CCCCCCC(=O)NCCCC[C@H](NC(=O)N[C@@H](CCC(=O)O)C(=O)O)C(=O)O)C(=O)O)CC[N]2CC(C)(C)[S][Tc]2(=[O])[S]1 (some centres unmarked) [technetium-99m labelled] has an internalized activity of 0.48 ± 0.01 %AD/mg protein (LNCaP; 25 nM, 1 h, 4 °C).
For CCn1cc(-c2cc(Cn3ccnc3)cc3c2CCN([C@H](c2cc(OC)ccn2)C2CC2)C3=O)c(C(F)(F)F)n1, the EC50 was over 30 µM (NCI-H2087; cell growth, inhibitor; 120 h).
With COc1cccc2c1C(=O)c1c(O)c3c(c(O)c1C2=O)C[C@@](O)(C(=O)CO)C[C@@H]3O[C@H]1C[C@H](N)[C@H](O)[C@H](C)O1 the maximal cytotoxicity was 97.7% (A2058; WST-1; concentration not given, 72 h, highest tested concentration).
The selectivity ratio of Nc1n[nH]c2nc(-c3cccc(O)c3)cc(-c3cc4cc(Cl)ccc4nc3N3CCOCC3)c12 is reported as 0.831 (NFS-60; MTT; reference: WI-38 EC50 over NFS-60 IC50).
For Nc1nc(S)nc(O)c1N=Cc1cn(-c2ccccc2)nc1-c1ccc(Cl)cc1, the depolarized mitochondria was 24.9% (CCRF-CEM; JC-1 flow cytometry; CC50, 5 h).
Cn1cc(CNCC2CCN(c3ncc(C(=O)NO)cn3)CC2)c2ccccc21 gave an inhibition of 95.4% (BT-12; cell viability, MTT; 10 µM, 72 h).
For O=c1[nH]nc(OCCCc2ccc(Cl)cc2)c(NCc2cccnc2)c1Br, “normalized enrichment score” read -1.26 (HEK-293T; RNA-seq GSEA, measured: HALLMARK_ESTROGEN_RESPONSE_LATE; concentration not given; direction not given).
For C=CCn1c(=O)c2cnc(Nc3ccc(N4CCN(C)CC4)cc3)nc2n1-c1ccc2c(n1)[C@@](O)(CC)CC2, “G2/M cells in subpopulation” read 4.1% (OVCAR-3; flow cytometry, measured: pHH3-γH2Ax+; concentration not given).
For CCOc1cc2ncc(C#N)c(Nc3ccc(F)c(Cl)c3)c2cc1NC(=O)/C=C/CN(C)C, the inhibition was 93.2% (BT-12; cell viability, MTT; 10 µM, 72 h).
For Nc1ncnc2c1ncn2[C@@H]1O[C@H](CSCC[C@H](N)C(=O)O)[C@@H](O)[C@H]1O, the viability was 103% (HBL-1; 0.5 µM, 120 h).
The IC50 of Cc1[nH]c(C)c(C2CCC(c3ccc(Cl)cc3)CC2)c(=O)c1Cl (centres unmarked) is reported as 0.042 ± 0.001 µM (Plasmodium yoelii; 17XL; 384-well).
For Cc1cc(Nc2ccc(NC(=O)c3ccc(Nc4ccnc5ccccc45)cc3)cc2)nc(N)n1, the viability was 0.453% (HBL-1; 0.5 µM, 120 h).
Under “LysoTracker Red positive cells”, C[C@H]1[C@@H](O)O[C@@H]2O[C@@]3(C)CC[C@H]4[C@H](C)CC[C@@H]1[C@@]24OO3 is recorded as 15.7% (MV4-11 cells; lysosomal disruption, flow cytometry; 5 µM, 24 h).
O=C(/C=C/c1ccc(CN(CCO)CCc2c[nH]c3ccccc23)cc1)NO has an inhibition of 94.1% (BT-12; cell viability, MTT; 10 µM, 72 h).
CCCC(=O)O has a viability of 111% (HBL-1; 0.5 µM, 120 h).
CC(Nc1nc(N2CCCC2)nc2ccccc12)c1ccccc1 (centres unmarked): “cells with nuclear RelA” 93.7% and 77.2% (HeLa Kyoto; RelA nuclear import, high content imaging; 1.58 µM, 3 h, together with: 1 µM PMA, 60 min).
For O=C(C[C@@H](C(F)F)n1ccc(F)n1)N1CCC(O)(Cn2cnc3c(cnn3-c3ccc(F)cc3)c2=O)CC1, “cells in G1 phase” read 73.7% and 74.4% and 71.3% (CHP-212 resistant cells (pooled); PI flow cytometry; 0.3 µM, 24 h).
CCn1cc(-c2cc(Cn3ccoc3=N)cc3c2CCN([C@@H](C)c2cc(OC)ccn2)C3=O)c(C(F)(F)F)n1 gave an EC50 of 6.68 µM (Huh-7; cell growth, inhibitor; 120 h).
For CC/C(=N\NC(=O)NCc1cccc(O)c1)c1ccc(O)c(C)c1O, the protein level was 1.02 ± 0.59 (SK-OV-3; Western blot, measured: LATS; 10 µM, 3 h, 2D culture, unit not given; reference: β-actin).
For O=C(NC1CCN(CCCCC2(C(=O)NCC(F)(F)F)c3ccccc3-c3ccccc32)CC1)c1ccccc1-c1ccc(C(F)(F)F)cc1, the inhibition was 94.3% (BT-12; cell viability, MTT; 10 µM, 72 h).
The reporter activation of CC(=O)OC[C@H]1O[C@@H]([S-])[C@H](OC(C)=O)[C@@H](OC(C)=O)[C@@H]1OC(C)=O.CCP(CC)CC.[Au+] is reported as over 20 fold (SH-SY5Y Neh2-luc reporter; concentration not given, 3 h; reference: background).
COc1ccc(S(=O)(=O)N(CCO)c2ccccc2CN(C)C/C=C/c2ccc(Cl)cc2)cc1 has an inhibition of 13% (HeLa expressing Ub(G76V)-GFP; Ub(G76V)-GFP degradation, cycloheximide chase; 12 µM).
O=C(/C=C/C=C/C=C/C1CCCCC1)NC1=C[C@@](O)(/C=C/C=C/C=C/C(=O)NC2=C(O)CCC2=O)[C@@H]2O[C@@H]2C1=O has a GI50 of 12.5 µM (NCI-H1693; cell growth, CellTiter-Glo; 78 h).
The mRNA level of COc1cc(/C=C/C(=O)N2CCC=CC2=O)cc(OC)c1OC is reported as 119 ± 5.8% (MDA-MB-468; quantitative RT-PCR, measured: GSS; 30 µM, 8 h; reference: untreated cells).
Fc1ccc(-c2nc3n(c2-c2ccncc2)CCS3)cc1 has an inhibition of 17% (HeLa expressing Ub(G76V)-GFP; Ub(G76V)-GFP degradation, cycloheximide chase; 12 µM).
The viability of COc1cc2c(cc1-c1c(C)noc1C)ncc1[nH]c(=O)n([C@H](C)c3ccccn3)c12 is reported as 122% (HBL-1; 0.1 µM, 120 h).
For CCS(=O)(=O)c1nc(C2CC2)cc(C(F)(F)F)n1, “cells with nuclear RelA” read 76.2% and 78.6% (HeLa Kyoto; RelA nuclear import, high content imaging; 0.16 µM, 3 h, together with: 1 µM PMA, 60 min).
With Nc1nc(=S)c2[nH]cnc2[nH]1 the viability was 123% (HBL-1; 0.1 µM, 120 h).
COc1cnc2cccc(N3CCc4c(cc(Cn5ccnc5C)cc4-c4cn(C)nc4C(F)(F)F)C3=O)c2c1 has an EC50 of 0.0452 µM (RS4; cell growth, inhibitor; 120 h).
For O=c1oc2c(O)c(O)cc3c(=O)oc4c(O)c(O)cc1c4c23, the viability was 98.6% (HBL-1; 0.1 µM, 120 h).
Under ERK phosphorylation, C=CC(=O)N1CCCN(C(=O)c2cc(Sc3cnc(NC(=O)C4CC4)s3)c(C)cc2OC)C[C@H]1C is recorded as “inhibited” (human CD4 T cells; flow cytometry; concentration not given, together with: anti-CD3/CD28 crosslinking).
With CCOC(=O)NCCCC(=O)NCCc1ccccc1 the viability was 130% (HBL-1; 0.1 µM, 120 h).
Under “pathway activation z-score”, Cn1cc(Nc2nccc(-c3ccc4c(c3)CN(C3COC3)CC[C@H]4NC(=O)c3cn(C(C)(C)C)nn3)n2)cn1 is recorded as 2.71 (mouse splenic B cells; measured: Thrombopoietin signalling; 30 mg/kg, IgD-activated in vivo; reference: vehicle, direction not given).
